Measured values collected from several papers.
Compare with care: the assays were run in different laboratories. “And” joins repeats or separate records; there may be more than shown. Numbers after ± are the reported error.
VHL with elongin B/C: von Hippel-Lindau disease tumor suppressor, with elongin B/C (VHL, Homo sapiens, UniProt P40337)
IFIT1: Antiviral innate immune response effector IFIT1 (IFIT1, Homo sapiens, UniProt P09914)
STING1 H232R: Stimulator of interferon genes protein (STING1, Homo sapiens, UniProt Q86WV6, H232R)

For `C=CC(=O)N1C[C@H](C)N(c2nc(OC[C@@]34CCCN3C[C@H](F)C4)nc3c(F)c(-c4ccc(F)c5sc(N)c(C#N)c45)c(C(F)(F)F)cc23)C[C@H]1C`, the Kd was 9.8 µM and 10.3 µM (GTPase KRas, GppNHp-bound (KRAS, Homo sapiens, UniProt P01116, Q61H)).
`BP(=O)(OP(=O)([O-])OC[C@H]1O[C@@H](n2c[n+](C)c3c(=O)[nH]c(N)nc32)[C@H](O)[C@@H]1O)OP(=O)([O-])OC[C@H]1O[C@@H](n2c[n+](C)c3c(=O)[nH]c(N)nc32)[C@H](O)[C@@H]1O` gave a Kd of 0.09 µM (Eukaryotic translation initiation factor 4E, residues 28-217 (Eif4e, Mus musculus, UniProt P63073); cap binding, fluorescence quenching titration).
The Kd of `Cc1cccc2c1N(C(=O)n1ccnn1)CC2` is reported as 1170 µM (KAI2 (Arabidopsis thaliana, UniProt Q9SZU7, D217E); ITC; D217E mutant, mean).
`COC1CN([C@H]2CC[C@H]([C@@]3(C)Oc4c(Cl)cc(C(=O)NCc5c(SC)cc(C)[nH]c5=O)c(C)c4O3)CC2)C1`: “log2 fold change” 1.14 (RNA-seq, measured: SPATA7; human, whole blood; dose not given, 24 h; baseline: pretreatment baseline).
`CC(=O)N1c2ccc(-c3ccc(CNC(=O)c4cn5cc(-c6cnc(N)nc6)nc(N6CCOCC6)c5n4)cc3)cc2CC[C@@H]1C` has a Kd of 0.0006 µM (Bromodomain-containing protein 3, BD2 (BRD3, Homo sapiens, UniProt Q15059); binding, competition with immobilised ligand).
With `CC(=O)NCC1CCCCN1c1nc(NCC2Cc3ccccc3O2)nc(N2CC3C(CCOc4cc(-c5scnc5C)ccc4CNC(=O)C4CC(O)CN4C(=O)C(NC(=O)C4(F)CC4)C(C)(C)C)C3C2)n1` (stereo not drawn) the Kd was 0.202 µM (VHL with elongin B/C; binary binding, SPR).
For `CC(=O)c1cnc2ccc(-c3cc(Cl)c(O)c(Cl)c3)nc2c1N[C@H]1CC[C@H](CN(C)C)CC1`, the Kd was 3 µM (Receptor-like protein kinase FERONIA (FER, Arabidopsis thaliana, UniProt Q9SCZ4, D679A); binding, SPR; mutant protein).
For `CC(/C=C/C(=O)NO)=C\[C@@H](C)C(=O)c1ccc(N(C)C)cc1`, the Kd was over 30.2 µM (Isochorismatase domain-containing protein 1 (Homo sapiens, UniProt Q96CN7); inhibitor, competition pulldown; SW620 and MV4-11 lysate; 1 h).
The Kd of `C[n+]1cn([C@@H]2O[C@H](COP(=O)(O)OP(=O)([O-])OP(=O)(O)OC[C@H]3O[C@@H](n4cnc5c(N)ncnc54)[C@H](O)[C@@H]3OP(=O)(O)OC[C@H]3O[C@@H](n4cnc5c(=O)[nH]c(N)nc54)[C@H](O)[C@@H]3O)[C@@H](O)[C@H]2O)c2nc(N)nc(O)c21` is reported as 0.015 µM (IFIT1; microscale thermophoresis; pH 7.5, added: unstructured cap II RNA, 35 nt).
With `NCCCC[C@H](NC(=O)[C@H](C/C=C\C[C@H](NC(=O)[C@@H]1CCCN1)C(=O)N[C@@H](CCCCN)C(=O)NCCCN)NC(=O)[C@@H]1CCCN1)C(=O)NCCCN` the Kd was 0.348 µM (CUG–CAG duplex RNA; SPR).
`C#Cc1ccc2nc(C3(NC(=O)c4cc(-c5ccc(F)cc5F)on4)CCN(C(=N)c4ccc([N+](=O)[O-])o4)CC3)[nH]c2c1` gave an EC50 of 1.29 ± 0.1 µM (STING1 H232R; reporter gene, inhibitor; THP1-Dual KI-hSTING-R232; 24 h, 1 h preincubation, added: diABZI 500 nM).
With `C[n+]1cn([C@@H]2O[C@H](COP(=O)(O)OP(=O)([O-])OP(=O)(O)OC[C@H]3O[C@@H](n4ccc(=O)[nH]c4=O)[C@H](O)[C@@H]3OP(=O)(O)OC[C@H]3O[C@@H](n4cnc5c(=O)[nH]c(N)nc54)[C@H](O)[C@@H]3O)[C@@H](O)[C@H]2O)c2nc(N)nc(O)c21` the Kd was 390 µM (IFIT1; binding, microscale thermophoresis; pH 7.5).
The Kd of `Cc1c[nH]c2nccc(-c3ccc(C(=O)N[C@@H]4c5c(F)cc(C(F)F)cc5C[C@@H]4O)cn3)c12` is reported as 0.382 µM (HASPIN (Homo sapiens, UniProt Q8TF76); binding, competition with immobilised ligand).
The Kd of `Nc1nnc(-c2ccccc2O)cc1N1CCNCC1` is reported as over 10 µM (VHL (Homo sapiens, UniProt P40337); binding, SPR).
`CNc1ncnc2c1ncn2[C@@H]1O[C@H](COP(=O)(O)OP(=O)([O-])OP(=O)(O)OC[C@H]2O[C@@H](n3c[n+](C)c4c(O)nc(N)nc43)[C@H](O)[C@@H]2O)[C@@H](OP(=O)(O)OC[C@H]2O[C@@H](n3cnc4c(=O)[nH]c(N)nc43)[C@H](O)[C@@H]2O)[C@H]1O` has a Kd of 50 µM (IFIT1; binding, microscale thermophoresis; pH 7.5).
The Kd of `CCc1nc2cc3ccccc3cc2cc1C(=O)N1CCC[C@H]1C(=O)N[C@@H](C/C=C/C[C@H](NC(=O)[C@@H]1CCCN1C(=O)c1cc2cc3ccccc3cc2nc1CC)C(=O)N[C@@H](CCCCN)C(=O)NCCCN)C(=O)N[C@@H](CCCCN)C(=O)NCCCN` is reported as 0.427 µM (CUG–CAG duplex RNA; SPR).
`C[n+]1cn([C@@H]2O[C@H](COP(=O)(O)OP(=O)([O-])OP(=O)(O)OC[C@H]3O[C@@H](n4cnc5c(=O)[nH]c(N)nc54)[C@H](O)[C@@H]3OP(=O)(O)OC[C@H]3O[C@@H](n4cnc5c(=O)[nH]c(N)nc54)[C@H](O)[C@@H]3O)[C@@H](O)[C@H]2O)c2nc(N)nc(O)c21` gave a Kd of 0.33 µM (IFIT1; binding, microscale thermophoresis; pH 7.5, 70 nt capped RNA).
`O=C(N[C@@H](CCCCNC(=O)c1ccc([N+](=O)[O-])o1)c1nc2ccccc2[nH]1)c1ccc(-c2ncco2)cc1` gave an EC50 of 9.8 µM (STING1 H232R; reporter gene, inhibitor; THP1-Dual KI-hSTING-R232; 24 h, 1 h preincubation, added: diABZI 500 nM).
`O=C(O)C1OC(OC2C(C(=O)O)OC(OC3C(C(=O)O)OC(OC4C(C(=O)O)OC(O)C(O)C4O)C(O)C3O)C(O)C2O)C(O)C(O)C1O` (stereo not drawn) has a Kd of 466 µM (Beta-lactoglobulin (LGB, Bos taurus, UniProt P02754, A134V/G80D); isothermal titration calorimetry; pH 2.65, 37 °C, 50 mM KH2PO4).
The Kd of `Cc1ncsc1-c1ccc(CNC(=O)[C@@H]2C[C@@H](O)CN2C(=O)[C@@H](NC(=O)C2(F)CC2)C(C)(C)C)c(OCCC2CCN(c3nc(NCC(C)(C)C4(O)CCOC4)nc(N4CCC[C@H]4Cn4ccnn4)n3)CC2)c1` (stereo partly drawn) is reported as 0.0082 µM (VHL with elongin B/C; binary binding, SPR).
`Cc1cc2nc3c(=O)[nH]c(=O)nc-3n(C[C@H](O)[C@H](O)[C@H](O)COP(=O)(O)OP(=O)(O)OC[C@H]3O[C@@H](n4cnc5c(N)ncnc54)[C@H](O)[C@@H]3OP(=O)(O)OC[C@H]3O[C@@H](n4cnc5c(=O)[nH]c(N)nc54)[C@H](O)[C@@H]3O)c2cc1C` gave a Kd of 21 µM (IFIT1; binding, microscale thermophoresis; pH 7.5).
The Kd of `CCc1nc2cc3ccccc3cc2cc1C(=O)N[C@@H](CCCCN)C(=O)N[C@@H](C/C=C\C[C@H](NC(=O)[C@H](CCCCN)NC(=O)c1cc2cc3ccccc3cc2nc1CC)C(=O)N1CCC[C@H]1C(=O)NCCCN)C(=O)N1CCC[C@H]1C(=O)NCCCN` is reported as 0.0878 µM (CUG–CAG duplex RNA; SPR).
With `CN1CCN(c2ccc3cc(COC(=O)Nc4cccc(C(=O)NO)c4)ccc3c2)CC1` the Kd was 3.48 µM (Alpha-synuclein, pre-formed fibrils (SNCA, Homo sapiens, UniProt P37840); binding, ITC; PBS; 25 °C).
`CC(=O)N[C@H]1[C@H]([C@H](O)[C@H](O)CNC(=O)c2ccc(-c3ccccc3)cc2)O[C@@](OCc2cn(CC(O)Cn3c([N+](=O)[O-])cnc3C)nn2)(C(=O)O)C[C@@H]1O` (stereo partly drawn) gave a Kd of 7.55 µM (CD22 (Homo sapiens, UniProt P20273); binding, ITC).
The Kd of `CC(=O)NCC1CCCCN1c1nc(N(C)CCc2ncc(C)s2)nc(N2CC3C(CCOc4cc(-c5scnc5C)ccc4CNC(=O)[C@@H]4C[C@@H](O)CN4C(=O)[C@@H](NC(=O)C4(F)CC4)C(C)(C)C)C3C2)n1` (stereo partly drawn) is reported as 0.249 µM (VHL with elongin B/C; binary binding, SPR).
With `NC(=O)c1ccc[n+]([C@@H]2O[C@H](COP(=O)(O)OP(=O)([O-])OC[C@H]3O[C@@H](n4cnc5c(N)ncnc54)[C@H](O)[C@@H]3OP(=O)(O)OC[C@H]3O[C@@H](n4cnc5c(=O)[nH]c(N)nc54)[C@H](O)[C@@H]3O)[C@@H](O)[C@H]2O)c1` the Kd was 1 µM (IFIT1; binding, microscale thermophoresis; pH 7.5, 70 nt capped RNA).
With `NS(=O)(=O)c1cc(C(=O)NCCCC(=O)O)c(NC2CCCCC2)cc1Cl` the Kd was 14 µM (CA7 (Homo sapiens, UniProt P43166); pH 7).
The Kd of `CNC(=O)c1cc(F)c(-c2nc3cc(C)ccn3c2C[C@H]2CN(C(=O)OC)CCO2)c(F)c1` is reported as 0.1 µM (P2RX3 (Canis lupus, UniProt A0A8I3S575); binding, ITC).
`O=P(O)(O)O[C@H]1[C@H](OP(=O)(O)O)[C@@H](OP(=O)(O)O)[C@@H](O)[C@@H](O)[C@@H]1OP(=O)(O)O` gave a Kd of 0.94 ± 0.25 µM (Inositol-tetrakisphosphate 1-kinase (Homo sapiens, UniProt Q13572); binding, microscale thermophoresis; added: ATP 10 µM).
Under “log2 fold change”, `Cc1ncsc1-c1ccc(C(C)NC(=O)C2CC(O)CN2C(=O)C(NC(=O)CCCCCCCCCCN2CCCC(Nc3ncc(Cl)c(Nc4ccccc4S(=O)(=O)C(C)C)n3)C2)C(C)(C)C)cc1` (stereo not drawn) is recorded as -1.11 (22Rv1; RNA-seq, measured: OTUD6B-AS1; concentration not given; baseline: DMSO).

A few entries again:
For `CC(=O)c1cnc2ccc(-c3cc(Cl)c(O)c(Cl)c3)nc2c1N[C@H]1CC[C@H](CN(C)C)CC1`, the Kd was 3 µM (Receptor-like protein kinase FERONIA (FER, Arabidopsis thaliana, UniProt Q9SCZ4, D679A); binding, SPR; mutant protein).
With `C[n+]1cn([C@@H]2O[C@H](COP(=O)(O)OP(=O)([O-])OP(=O)(O)OC[C@H]3O[C@@H](n4ccc(=O)[nH]c4=O)[C@H](O)[C@@H]3OP(=O)(O)OC[C@H]3O[C@@H](n4cnc5c(=O)[nH]c(N)nc54)[C@H](O)[C@@H]3O)[C@@H](O)[C@H]2O)c2nc(N)nc(O)c21` the Kd was 390 µM (IFIT1; binding, microscale thermophoresis; pH 7.5).
